# Experimental data of several laboratories.
# ± gives the spread as reported.
Structure (SMILES),test,test system,conditions,tissue uptake [%ID/g]
N=C(N)NCCC[C@@H]1NC(=O)[C@H](CCCCNC(=O)CCOCCOCCOCCOCCNC(=O)CC[C@H](NC(=O)CCOCCOCCOCCOCCNC(=O)c2ccc(NN)nc2)C(=O)NCCOCCOCCOCCOCCC(=O)NCCCC[C@@H]2NC(=O)[C@@H](Cc3ccccc3)NC(=O)[C@H](CC(=O)O)NC(=O)CNC(=O)[C@H](CCCNC(=N)N)NC2=O)NC(=O)[C@@H](Cc2ccccc2)NC(=O)[C@H](CC(=O)O)NC(=O)CNC1=O [technetium-99m labelled],,"female athymic nude mice, U-87 MG glioma xenograft, kidney","intravenous, 2.5 µCi, 60 min",8.22 ± 1.99
CCCC[C@H](NC(=O)[C@H](Cc1cccs1)NC(=O)[C@H](Cc1c[nH]cn1)NC(=O)CCNC(=O)[C@@H](NC(=O)[C@H](C)NC(=O)[C@H](Cc1c[nH]c2ccccc12)NC(=O)[C@H](CCC(N)=O)NC(=O)[C@H](Cc1cccs1)NC(=O)CN1CCC(NC(=O)CN(CCN(CCN(CC(=O)O)CC(=O)O)CC(=O)O)CC(=O)O)CC1)C(C)C)C(N)=O [indium-111 labelled],,"male Swiss nu/nu mice, PC-3 tumour, kidney","intravenous, 10 pmol, 24 h",0.6 ± 0.3
N=C(N)NCCC[C@@H]1NC(=O)[C@H](CCCCNC(=O)CNC(=O)CNC(=O)CNC(=O)CC[C@H](NC(=O)CNC(=O)CNC(=O)CNC(=O)[C@H](CCCCNC(=O)c2ccc(NN)nc2)NC(=O)c2ccc(NN)nc2)C(=O)NCC(=O)NCC(=O)NCC(=O)NCCCC[C@@H]2NC(=O)[C@@H](Cc3ccccc3)NC(=O)[C@H](CC(=O)O)NC(=O)CNC(=O)[C@H](CCCNC(=N)N)NC2=O)NC(=O)[C@@H](Cc2ccccc2)NC(=O)[C@H](CC(=O)O)NC(=O)CNC1=O [technetium-99m labelled],,"female athymic nude mice, muscle","intravenous, 0.1 MBq, 1 h, U-87 MG glioma xenograft",0.79 ± 0.15
N=C(N)NCCC[C@@H]1NC(=O)[C@H](CC(=O)NC23CNCCNCC(N)(CNCCNC2)CNCCNC3)NC(=O)[C@@H](Cc2ccccc2)NC(=O)[C@H](CC(=O)O)NC(=O)CNC1=O [copper-64 labelled],,"male nude tumour-bearing mice, kidney","iv, 10 µCi, 4 h",3.17 ± 0.96
N=C(N)NCCC[C@@H]1NC(=O)[C@H](CCCCNC(=O)CC[C@H](NC(=O)CCOCCOCCOCCOCCNC(=O)CN2CCN(CC(=O)O)CCN(CC(=O)O)CCN(CC(=O)O)CC2)C(=O)NCCCC[C@@H]2NC(=O)[C@@H](Cc3ccccc3)NC(=O)[C@H](CC(=O)O)NC(=O)CNC(=O)[C@H](CCCNC(=N)N)NC2=O)NC(=O)[C@@H](Cc2ccccc2)NC(=O)[C@H](CC(=O)O)NC(=O)CNC1=O [indium-111 labelled],,"female athymic nude mice, eyes","intravenous, 3 µCi, 24 h, U-87 MG glioma xenograft",0.39 ± 0.12
N=C(N)NCCC[C@@H]1NC(=O)[C@H](CCCCNC(=O)CCOCCOCCOCCOCCNC(=O)CC[C@H](NC(=O)CCOCCOCCOCCOCCNC(=O)[C@H](CCCCNC(=O)c2ccc(NN)nc2)NC(=O)c2ccc(NN)nc2)C(=O)NCCOCCOCCOCCOCCC(=O)NCCCC[C@@H]2NC(=O)[C@@H](Cc3ccccc3)NC(=O)[C@H](CC(=O)O)NC(=O)CNC(=O)[C@H](CCCNC(=N)N)NC2=O)NC(=O)[C@@H](Cc2ccccc2)NC(=O)[C@H](CC(=O)O)NC(=O)CNC1=O [technetium-99m labelled],,"female athymic nude mice, blood","intravenous, 0.1 MBq, 1 h, U-87 MG glioma xenograft",0.69 ± 0.16
N=C(N)NCCC[C@@H]1NC(=O)[C@H](CCCCNC(=O)CCOCCOCCOCCOCCNC(=O)CC[C@H](NC(=O)CCOCCOCCOCCOCCNC(=O)CC[C@H](NC(=O)CN2CCN(CC(=O)O)CCN(CC(=O)O)CCN(CC(=O)O)CC2)C(=O)NCCOCCOCCOCCOCCC(=O)N[C@@H](CCC(=O)NCCOCCOCCOCCOCCC(=O)NCCCC[C@@H]2NC(=O)[C@@H](Cc3ccccc3)NC(=O)[C@H](CC(=O)O)NC(=O)CNC(=O)[C@H](CCCNC(=N)N)NC2=O)C(=O)NCCOCCOCCOCCOCCC(=O)NCCCC[C@@H]2NC(=O)[C@@H](Cc3ccccc3)NC(=O)[C@H](CC(=O)O)NC(=O)CNC(=O)[C@H](CCCNC(=N)N)NC2=O)C(=O)NCCOCCOCCOCCOCCC(=O)NCCCC[C@@H]2NC(=O)[C@@H](Cc3ccccc3)NC(=O)[C@H](CC(=O)O)NC(=O)CNC(=O)[C@H](CCCNC(=N)N)NC2=O)NC(=O)[C@@H](Cc2ccccc2)NC(=O)[C@H](CC(=O)O)NC(=O)CNC1=O [indium-111 labelled],,"female athymic nude mice, lungs","intravenous, 3 µCi, 1 h, U-87 MG glioma xenograft",3.69 ± 0.92
CSCC[C@H](NC(=O)[C@H](CC(C)C)NC(=O)[C@H](Cc1c[nH]cn1)NC(=O)CNC(=O)[C@@H](NC(=O)[C@H](C)NC(=O)[C@H](Cc1c[nH]c2ccccc12)NC(=O)[C@H](CCC(N)=O)NC(=O)[C@H](CC(N)=O)NC(=O)CNC(=O)[C@H](Cc1ccc(O)cc1)NC(=O)[C@H](CCCNC(=N)N)NC(=O)[C@H](CCC(N)=O)NC(=O)[C@@H]1CCCN1C(=O)CN1CCN(CC(=O)O)CCN(CC(=O)O)CCN(CC(=O)O)CC1)C(C)C)C(N)=O [indium-111 labelled],,"male Swiss nu/nu mice, PC-3 tumour, kidney","intravenous, 10 pmol, 4 h",10.6 ± 1.6
CSCC[C@H](NC(=O)[C@H](CC(=O)O)NC(=O)[C@H](CO)NC(=O)[C@H](Cc1c[nH]cn1)NC(=O)[C@H](Cc1c[nH]c2ccccc12)NC(=O)CN1CCN(CC(=O)O)CCN(CC(=O)O)CCN(CC(=O)O)CC1)C(=O)N[C@@H](CCC(=O)O)C(=O)N[C@@H](Cc1c[nH]c2ccccc12)C(=O)N[C@@H](Cc1c[nH]c2ccccc12)C(=O)N[C@@H](Cc1ccc(O)cc1)C(=O)N[C@@H](CC(C)C)C(=O)N[C@@H](CC(C)C)C(=O)NCC(=O)N[C@@H](CCCCNC(=O)COCCOCCNC(=O)CCN1C(=O)C=CC1=O)C(=O)O [copper-64 labelled],gamma counting,"nude mice bearing HT-29 tumours, HT-29 tumour","intravenous, 0.74 MBq (0.02 nmol), 4 h",4.69
CC(C)C[C@H](NC(=O)[C@H](Cc1ccc(O)cc1)NC(=O)[C@@H](CCCNC(=N)N)NC(=O)[C@@H](CO)NC(=O)[C@H](Cc1ccccc1)NC(=O)[C@H](CC1CCCCC1)NC(=O)[C@H](CC(=O)O)NC(=O)CCC(C(=O)O)N1CCCN2CCN(CCCN(CC(=O)O)CC2)CC1)C(=O)N[C@@H](Cc1c[nH]c2ccccc12)C(=O)N[C@@H](CO)C(=O)O (stereo partly shown) [copper-64 labelled],,"female NMRI nude mice, lung",22 h p.i.,2 ± 0.8
N=C(N)NCCC[C@@H]1NC(=O)[C@H](CCCCNC(=O)CNC(=O)CNC(=O)CNC(=O)CC[C@H](NC(=O)CCOCCOCCOCCOCCNC(=O)CC[C@H](NC(=O)CN2CCN(CC(=O)O)CCN(CC(=O)O)CCN(CC(=O)O)CC2)C(=O)NCCOCCOCCOCCOCCC(=O)N[C@@H](CCC(=O)NCC(=O)NCC(=O)NCC(=O)NCCCC[C@@H]2NC(=O)[C@@H](Cc3ccccc3)NC(=O)[C@H](CC(=O)O)NC(=O)CNC(=O)[C@H](CCCNC(=N)N)NC2=O)C(=O)NCC(=O)NCC(=O)NCC(=O)NCCCC[C@@H]2NC(=O)[C@@H](Cc3ccccc3)NC(=O)[C@H](CC(=O)O)NC(=O)CNC(=O)[C@H](CCCNC(=N)N)NC2=O)C(=O)NCC(=O)NCC(=O)NCC(=O)NCCCC[C@@H]2NC(=O)[C@@H](Cc3ccccc3)NC(=O)[C@H](CC(=O)O)NC(=O)CNC(=O)[C@H](CCCNC(=N)N)NC2=O)NC(=O)[C@@H](Cc2ccccc2)NC(=O)[C@H](CC(=O)O)NC(=O)CNC1=O [indium-111 labelled],,"female athymic nude mice, liver","intravenous, 3 µCi, 24 h, U-87 MG glioma xenograft",0.91 ± 0.08
N=C(N)NCCC[C@H](NC(=O)[C@H](CCCCN)NC(=O)[C@H](CCC(N)=O)NC(=O)CCOCCOCCOCCNC(=O)CN1CCN(CC(=O)O)CCN(CC(=O)O)CCN(CC(=O)O)CC1)C(=O)N[C@@H](CCCCN)C(=O)N[C@@H](CCCNC(=N)N)C(=O)N[C@@H](CCCCN)C(=O)N[C@@H](CCCCN)C(=O)N[C@@H](CO)C(=O)N[C@@H](CCCNC(=N)N)C(=O)N[C@@H](Cc1ccc(O)cc1)C(=O)N[C@@H](CCCCN)C(=O)N[C@@H](CO)C(=O)O [copper-64 labelled],,"C57BL/6 mice, B16-F10 tumour, thymus","intravenous, 60 min",0.51 ± 0.1
CSCC[C@H](NC(=O)[C@H](CC(C)C)NC(=O)[C@H](Cc1c[nH]cn1)NC(=O)CNC(=O)[C@@H](NC(=O)[C@H](C)NC(=O)[C@H](Cc1c[nH]c2ccccc12)NC(=O)[C@H](CCC(N)=O)NC(=O)CCCCCCCNC(=O)CCC(=O)Nc1ccc(CNC23CNCCNCC(N)(CNCCNC2)CNCCNC3)cc1)C(C)C)C(N)=O [copper-64 labelled],,"female SCID mice, PC-3 xenograft, bone","intravenous, 0.6 MBq, 24 h",0.469 ± 0.025

# Excerpt of the above:
Structure (SMILES),test,test system,conditions,tissue uptake [%ID/g]
CCCC[C@H](NC(=O)[C@H](Cc1cccs1)NC(=O)[C@H](Cc1c[nH]cn1)NC(=O)CCNC(=O)[C@@H](NC(=O)[C@H](C)NC(=O)[C@H](Cc1c[nH]c2ccccc12)NC(=O)[C@H](CCC(N)=O)NC(=O)[C@H](Cc1cccs1)NC(=O)CN1CCC(NC(=O)CN(CCN(CCN(CC(=O)O)CC(=O)O)CC(=O)O)CC(=O)O)CC1)C(C)C)C(N)=O [indium-111 labelled],,"male Swiss nu/nu mice, PC-3 tumour, kidney","intravenous, 10 pmol, 24 h",0.6 ± 0.3
